# Measurements pooled from the literature.
# Parts stem from different laboratories: compare values within a part only.

# Study 1
# Target: Histone acetyltransferase KAT6A, winged helix 2, GST fusion (KAT6A, Homo sapiens, UniProt Q92794, residues 85-181)
# Method: protein binding microarray
# Form: double-stranded DNA, one strand shown
# Sample: in vitro
# Tested at: not given
# Setting: 8-mer, flanks averaged, mean of 2 arrays, mostly near background
# Baseline: not given
# Reading: higher = stronger binding
# Construct (chain): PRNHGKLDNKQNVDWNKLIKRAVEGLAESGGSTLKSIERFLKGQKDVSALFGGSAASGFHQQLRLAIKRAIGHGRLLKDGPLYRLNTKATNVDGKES
Oligonucleotide,E-score
AAAGGCCT,-0.162
TGGGCCCA,0.00276
AAAGCCAC,0.0401
AACATCAT,0.0388
ATCTGCGC,0.0476
ATCCACGG,0.0942
CCTCCAGG,0.00248
AAAGACCC,0.188
CGCATCGA,0.127
AACTCAAT,-0.0874
GAGCTCCA,0.0371
CGTCGTGC,0.0821
ACCTTGAG,0.0265
AGTATTTG,-0.0826
ATCTCAGC,-0.0525
AGGCCCAT,-0.0685

# Study 2
# Target: RING finger protein unkempt homolog, zinc fingers 1-6, GST-SBP tag (UNK, Homo sapiens, UniProt Q9C0B0, residues 30-357)
# Method: RNA Bind-n-Seq
# Form: RNA
# Sample: in vitro
# Tested at: not given
# Setting: RNA with constant flanks, human and mouse sites, ends assumed
# Baseline: input RNA pool
# Reading: higher = stronger binding
# All sequences stand within: GGGAGUUCUACAGUCCGACGAUC … CAACAGAGGAUUGAGCAUCA
# Construct (chain): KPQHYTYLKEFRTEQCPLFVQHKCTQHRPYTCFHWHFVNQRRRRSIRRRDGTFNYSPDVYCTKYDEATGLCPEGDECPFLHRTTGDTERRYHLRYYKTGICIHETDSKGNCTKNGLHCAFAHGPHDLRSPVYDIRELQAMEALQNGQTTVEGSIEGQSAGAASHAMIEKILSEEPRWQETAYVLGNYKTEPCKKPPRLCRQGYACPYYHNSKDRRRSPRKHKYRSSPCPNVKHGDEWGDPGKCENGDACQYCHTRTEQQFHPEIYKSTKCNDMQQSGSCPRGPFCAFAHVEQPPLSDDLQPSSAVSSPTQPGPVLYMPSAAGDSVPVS
Oligonucleotide,bound/input enrichment
UACGUGACAAAGAAGAAAUUGGUUACAGAGCAUAAAGACACAGAGGAUUUUAGACAAGACUUCCACUCAGAGAUGUCUGGAUUUUGUAAAGCUGCUUUGAACACUUCUGCAGGGAACUCA,0.373 ratio
GAAACUGAAGAUGUAAAAGAAGCCAUAAGAAGGCUUCCUGAGGACCUUUAUAAUGACAGGAUGUUUCGAAUUAAGAGAGCCCUGGACCUGACUAUGAGGCAUCAGAUCUUGCCUAAGGAU,0.177 ratio
UCUGGGUGCUGACAGACCGGCAGAGGGAAGAUCUCCUAUUGUGGAUUCCUGCUAUCUUAUAAUGAGUGACAUUUUGCCAUUAGAUGUCAUUGGUAGAAGAGUUGAAGUUAAUGGAGAAUA,0.381 ratio
UGUUGGGGGUGGGUAUAAAAGAUGGGGUCUGUAAAAUCUUUUUUUCUUAGAAAUUCAUUUACUAGUUAUGUAGAAAUGGUUGUAUUAGAUGUUCUCUAUCAUUUAAUAAUAUACUUGUGG,16.3 ratio
AAGCAGAUACAGAUGGCUGCCUGCUGCUCGGCUUUGCUUUUGCUUUUCCCACCGUGUUUUCAUCUUUGUUCACUUGAGGCUUUCCCCAGCUGGUGUGUGCAGGACAGUUCAUGGUAAUGU,0.196 ratio
UUUGAUUUUCUUAUCCGGCUGCUCCCCUAUCAGACCUCAUCUUUUUUAAUUUUAUUUUUUGUUUACCUCCCUCCAUUCAUUCACAUGCUCAUCUGAGAAGACUUAAGUUCUUCCAGCUUU,41.7 ratio
UCAACUGACAACAUCAAAUACCAGCCUAAGGGGGGUCAGGUACAAAUUGUUACUAAGAAGAUAGACUUAAGCCAUGUGACAUCCAAAUGUGGCUCUCUAAAGAACAUCCGUCACAGGCCA,0.318 ratio
UUGGAAGGACCAGAGCCUAAUCAACUGAAACCAUUAGUCAUACAGGCUAUGCCCACCCUAAUAGAACUAAUGAAAGACCCCAGUGUAGUUGUUCGAGACACAACAGCGUGGACUGUGGGC,0.339 ratio
AAGGUGCACCUGGAUUCUGCAGUCGCCCUGGCCGCUGAGAGCCCUGUUAAUAUGAUGCCCUGGCAGGGGGACACCAACAACAUGAUUGACCGAUUCGAUGUCCGUGCCCACCUGGACCAC,0.0787 ratio
AGGGAACGGGGCAUCGCGGUUCCAACGAUUAACUGCUGAAGUACUGAUCGAGUUCUGCAUUUCUUCAAUGAGGAACUACAGGCUGAUCUUCUGCCAUAAUCUCAAACAGCCAUAAAUGAC,0.0949 ratio
AGAGAACCAGCCCUGGAUGGCGGGUUUCAGAUGCAUUAUGAGAAGACCCCGUUUGAUCAGUUAGCUUUUAUCGAAGAGCUUUUUUCACUGAUGGUUGUCAAUCGUCUGACCGAAGAACUC,0.48 ratio

# Study 3
# Target: Interferon regulatory factor 3, full length, phosphomimetic (IRF3, Homo sapiens, UniProt Q14653, residues 1-427, S386D/S396D/S398D/S402D/T404D/S405D)
# Method: protein-binding microarray
# Form: double-stranded DNA, one strand shown
# Sample: in vitro
# Tested at: 2540 nM top
# Setting: 60-bp whole probe
# Together with: salmon DNA 0.4 mg/ml
# Baseline: random background probes
# Reading: higher = stronger binding
# All sequences stand within: GCCTAGCAC … GTCTTGATTCGCTTGACGCTGCTG
# Target sequence (chain): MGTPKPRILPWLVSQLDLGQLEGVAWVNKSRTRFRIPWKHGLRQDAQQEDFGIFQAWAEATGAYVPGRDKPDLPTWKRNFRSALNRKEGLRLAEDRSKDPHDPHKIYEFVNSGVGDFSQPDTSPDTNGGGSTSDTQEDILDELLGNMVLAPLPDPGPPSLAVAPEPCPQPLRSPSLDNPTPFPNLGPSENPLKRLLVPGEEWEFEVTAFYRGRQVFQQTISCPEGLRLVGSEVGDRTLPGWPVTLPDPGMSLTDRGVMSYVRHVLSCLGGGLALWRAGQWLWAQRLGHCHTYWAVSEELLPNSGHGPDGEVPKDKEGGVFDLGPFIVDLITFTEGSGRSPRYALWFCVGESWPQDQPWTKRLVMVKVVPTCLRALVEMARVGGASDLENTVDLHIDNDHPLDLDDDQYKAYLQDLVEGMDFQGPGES
Oligonucleotide,fitted relative affinity
TCTTTTTTTTCTTTAAAAGTGTGCTAG,2.27 z-score
TATCAGTTTAATATCTAAGAGTGCTAG,3.09 z-score
TTAGGTTTCCTTTCCCATTAGTGCTAG,11 z-score
GAAGGTCTCGGTTTCGGGACGTGCTAG,3.7 z-score
GAGGAACTGAGACTGGAGACGTGCTAG,-0.671 z-score
GACGATTTCAGTTCCGTGACGTGCTAG,2.81 z-score
TCGGTGATCAGTCTGATGGTGTGCTAG,-0.658 z-score
TCAGAACTGTTTCTTGAACTGTGCTAG,0.796 z-score
TTCTGAACCATTTTGGTTTTGTGCTAG,2.3 z-score
AACTTTCTCTGCTCTTTTCAAGTGCTA,2.05 z-score
GACGGTTTCGGTTTCAGGACGTGCTAG,10.3 z-score
GACGATTTCAGTTCCGAGAGGTGCTAG,2.92 z-score
GACAATCTCAGTATCGAGACGTGCTAG,0.75 z-score
TTAGGTCACGGTTTCGGTTAGTGCTAG,3.86 z-score
ATTGCTTCCTCTTTACTGCTGTGCTAG,1.04 z-score
TCATGACTGGAGTCTGGAACTGTGCTA,-0.804 z-score
TTAGGTATCGGCTTCGGTTAGTGCTAG,1.03 z-score
TTAGGACTGGACACTAGGTTAGTGCTA,-0.659 z-score
GAAGGTATCGGTCTCGGGACGTGCTAG,3.99 z-score
GACGGTTTCGGGACTGTGGACGTGCTA,4.7 z-score
TCAGGACTGACTCTTCAGACTGTGCTA,-0.39 z-score

# Study 4
# Target: Fragile X messenger ribonucleoprotein 1, C-terminal low-complexity region (Fmr1, Mus musculus, UniProt P35922)
# Method: RNA Bind-n-Seq
# Form: RNA
# Sample: in vitro
# Tested at: 200 nM
# Setting: whole 134-nt RNA, ends assumed
# Together with: 150 mM KCl
# Baseline: input library
# Reading: higher = stronger binding
# All sequences stand within: GGGAGUUCUACAGUCCGACGAUC … UGGAAUUCUCGGGUGUCAAGG
Oligonucleotide,log2 enrichment
CCUCAAGUCCUGUGCUACACAUCGUAUGUACCGAAUCGGUGGAAAAAGGUGGAAAGUAUUAUGUUACGCCGUUCGGAUCUGCACUUCCAG,0.183
GCAGGAAGUAAAAACAAAUGGAAAUGCUUCGGAUAGUGGCAGGGGUGGGGGUUGCUAAGGAAAGGGUGGGAUGGGAGUGGCUAAAGAGUU,0.382
GUCCUGUGCUACACAUCGUAUGUACCGAAUCGGUUUUUUUGGAAAAAGGAAAAAAAGGAAAGUAUUAUGUUACGCCGUUCGGAUCUGCAC,-0.922
UGUGCUACACAUCGUAUGUACCGAAUCGGGGUUUUUUUGGGGUUUUUUUGGGUUUUUUUGGGGAAAGUAUUAUGUUACGCCGUUCGGAUC,0.235
GUCCUGUGCUACACAUCGUAUGUACCGAAUCGGGGAAAAAGGGGAAAGGGGAAAGGGGAAAGUAUUAUGUUACGCCGUUCGGAUCUGCAC,0.447
UCCUGUGCUACACAUCGUAUGUACCGAAUCGGGUUUUUUGGUUUUUUGGGGUUUUUUGGGAAAGUAUUAUGUUACGCCGUUCGGAUCUGC,-0.00607
GUCCUGUGCUACACAUCGUAUGUACCGAAUCAAAUUUAAACCCCCCCAAAUUUUUAAAAAAGUAUUAUGUUACGCCGUUCGGAUCUGCAC,0.327
CCUCAAGUCCUGUGCUACACAUCGUAUGUACCGAAUCGGGGUUGGUUGGUUGGAAAGUAUUAUGUUACGCCGUUCGGAUCUGCACUUCCA,0.259
GUCCUGUGCUACACAUCGUAUGUACCGAAUCGGUUUUUGGUUUUUGGGGUUUUUGGGGAAAGUAUUAUGUUACGCCGUUCGGAUCUGCAC,-0.346
UCCUGUGCUACACAUCGUAUGUACCGAAUCAAAUUUUUUUAAACCCCCAAAUUUUUAAAAAAGUAUUAUGUUACGCCGUUCGGAUCUGCA,0.523
CUGUGCUACACAUCGUAUGUACCGAAUCGGAAAAAAAGGGGAAAAAAAGGAAAAAAAGGGGAAAGUAUUAUGUUACGCCGUUCGGAUCUG,-0.928
CUGUGCUACACAUCGUAUGUACCGAAUCGGUUUUUUUGGGUUUUUUUGGGUUUUUUUGGGGAAAGUAUUAUGUUACGCCGUUCGGAUCUG,-0.731
UUUCUCCAAGGACAUCAAGGUGCCCAAGAGCCGCUACCUGGGCUACAUCAAGGACUACGAGGGAGCGACGCUGAUGGAGUGUGAGCUGAA,-1.18
GCAGGAAGUAAAAACAAAUGGAAAUGCUUCGGAUAGUGGCAGGGGUGGGGGUUGCUAAGGAAAGGGUGGGAUUGGAGUGGGUAAAGAGUU,0.337

# Some of these lines once more (study 3):
Oligonucleotide,fitted relative affinity
TTCTGAACCATTTTGGTTTTGTGCTAG,2.3 z-score
AACTTTCTCTGCTCTTTTCAAGTGCTA,2.05 z-score
GACGGTTTCGGTTTCAGGACGTGCTAG,10.3 z-score
GACGATTTCAGTTCCGAGAGGTGCTAG,2.92 z-score
GACAATCTCAGTATCGAGACGTGCTAG,0.75 z-score
TTAGGTCACGGTTTCGGTTAGTGCTAG,3.86 z-score
ATTGCTTCCTCTTTACTGCTGTGCTAG,1.04 z-score
